Published values from different studies.
Protocols differ between the studies behind these lines.
IRAK4: Interleukin-1 receptor-associated kinase 4 (IRAK4, Homo sapiens, UniProt Q9NWZ3)

| Structure (SMILES) | tested on | assay | test system | conditions | scale | quantity | result |
| --- | --- | --- | --- | --- | --- | --- | --- |
| Cc1cccc(O[C@H]2CCC[C@@H](C(C)CNCc3ccncc3)C2)c1 (relative stereo) | IRAK4 | kinase activity, kinome panel screening | – | 10 µM | – | inhibition | -5% |
| CCN1CCN(Cc2ccc(C(=O)Nc3ccc(C)c(NCc4cnc5[nH]ccc5c4OC)c3)cc2C(F)(F)F)CC1 | IRAK4 | binding, competition with immobilised ligand | – | 1 µM | – | remaining binding | 86% |
| C=CC(=O)N1Cc2nc(-c3cc(-c4cc(Cl)cnc4Cl)c(F)cc3F)n(-c3ccncn3)c2C1 | IRAK4 | cell-free assay, inhibitor | – | 1 µM | – | inhibition | 1.7% |
| Cc1nc2c(F)cc(-c3nc(Nc4ccc(CNC(=O)CCCCCCC(=O)NO)cc4)ncc3F)cc2n1C(C)C | IRAK4 | enzyme activity, inhibitor | – | 1 µM | – | inhibition | 78% |
| O=C(O)CCC(=O)c1cccc(NS(=O)(=O)c2c[nH]c3ncccc23)c1 | IRAK4 | kinase activity, radiometric | – | 10 µM | – | remaining activity | 97% |
| CN1CC[C@@H](COc2cnc(C#N)cc2-c2ccn3nc(NC(=O)C4CC4)cc3c2)C1 | IRAK4 | enzyme activity, inhibitor | – | 1 µM | – | inhibition | 8% |
| COc1c(Cl)cccc1Nc1c(-c2ccncc2C#C[C@@]2(C)CCCN2C(=O)/C=C/CN(C)C)[nH]c2c1C(=O)NCC2 | IRAK4 | binding, competition with immobilised ligand | – | 3 µM | – | remaining binding | 99% |
| C=CC(=O)N1CCc2ccc(-n3c(=O)ccc4cnc5ccc(-c6cnn(C)c6)cc5c43)cc21 | IRAK4 | KINOMEscan | – | 1 µM | reference: DMSO control | remaining binding | 100% |
| CNC(=O)C[C@H](Cc1ccc(C#N)cc1)NC(=O)c1cc(-c2ccc(CN[C@H](C)c3ccc(C)cc3)o2)ccc1Cl | IRAK4 | enzyme activity, inhibitor | – | 1 µM | – | activity vs control | 97% |
| Cc1cnc2nc1Nc1cccc(c1)COC/C=C/COCc1cc(ccc1OCCN1CCOCC1)N2 | IRAK4 | – | – | concentration not given | – | percent of control | 81% |
| COc1c(OCCCN2CCOCC2)ccc2c1N=C(NC(=O)c1cnc(N)nc1)N1CCN=C21 | IRAK4 | kinase activity, inhibitor | – | 1 µM | reference: untreated control | remaining activity | 100% |
| Cc1ccc(-c2c(/C=C(\C#N)C(=O)NC(C)C)n(CCCO)c3ncnc(N)c23)cc1 | IRAK4 | cell-free assay, competition with immobilised ligand | – | 1 µM | – | remaining binding | 96% |
| CCn1cc(C(=O)O)c(=O)c2c(N)c(F)c(NC3CCCCC3)cc21 | IRAK4 | kinase activity | – | 0.1 µM, added: ATP at Km | – | inhibition | -12.4% |
| CCc1ccc(CN2CCCC(CNC(=O)c3cccc(OC)c3OC)C2)cc1 (stereo not shown) | Trypanosoma cruzi | reporter mRNA translation, inhibitor, refers to: capped polyadenylated Renilla luciferase mRNA | cell-free extract | concentration not given | reference: control RNA | relative translation | 112% |
| Fc1cncc(-c2ccc3[nH]c4ncnc(N[C@H]5CC[C@H](N6CCOCC6)CC5)c4c3c2)c1 | IRAK4 | enzyme activity, inhibitor, radiometric | – | 1 µM | – | inhibition | > 98% |
| C[C@H]1CN(C(=O)c2cn(-c3ccnc(N)n3)c3cc(C#CC4(O)CCCCC4)ccc23)CCN1 | IRAK4 | enzyme activity, inhibitor, FRET | – | 1 µM | – | inhibition | -3% |
| C=CC(=O)Nc1cccc(-c2cnc3[nH]cc(C(=O)NC(C)(C)C)c3n2)c1 | IRAK4 | enzyme activity, inhibitor | – | 0.1 µM | – | inhibition | -3% |
| COc1cc(Nc2nc(C)cc(-c3cnn4nc(OC)ccc34)n2)cc(C(F)(F)F)c1 | IRAK4 | inhibitor | – | 1 µM | reference: control | remaining activity | 87% |
| COc1cncc(-c2ccc3[nH]c4ncnc(N[C@H]5CC[C@H](N6CCOCC6)CC5)c4c3c2)c1 | IRAK4 | enzyme activity, AlphaScreen | – | 1 µM, added: ATP 25 µM | – | inhibition | 100% |
| CNC1C[S+]2CC[S+]3CC[S+](C1)[Ru-4]321([N]=C=S)[n]2c3ccc(OC)cc3c3c4c(c5cc(F)c[n+]1c5c32)C(=O)NC4=O (stereo not shown) | IRAK4 | KinomeScan | – | 0.1 µM | reference: untreated | remaining binding | 85% |
| NC(=O)[C@@H](O)C[C@H]1CCc2sc3ncnc(O[C@H]4CC[C@H](N5CCOCC5)CC4)c3c21 | IRAK4 | enzyme activity, inhibitor | – | 10 µM | – | inhibition | 100% |
| CC(C)N=c1cc2n(-c3ccc(Cl)cc3)c3ccccc3nc-2cc1Nc1ccc(Cl)cc1 | Trypanosoma cruzi | reporter mRNA translation, inhibitor, refers to: capped polyadenylated Renilla luciferase mRNA | cell-free extract | concentration not given | reference: control RNA | relative translation | 122% |

A few entries again:
| Structure (SMILES) | tested on | assay | test system | conditions | scale | quantity | result |
| --- | --- | --- | --- | --- | --- | --- | --- |
| CCc1ccc(CN2CCCC(CNC(=O)c3cccc(OC)c3OC)C2)cc1 (stereo not shown) | Trypanosoma cruzi | reporter mRNA translation, inhibitor, refers to: capped polyadenylated Renilla luciferase mRNA | cell-free extract | concentration not given | reference: control RNA | relative translation | 112% |
| Fc1cncc(-c2ccc3[nH]c4ncnc(N[C@H]5CC[C@H](N6CCOCC6)CC5)c4c3c2)c1 | IRAK4 | enzyme activity, inhibitor, radiometric | – | 1 µM | – | inhibition | > 98% |
| C[C@H]1CN(C(=O)c2cn(-c3ccnc(N)n3)c3cc(C#CC4(O)CCCCC4)ccc23)CCN1 | IRAK4 | enzyme activity, inhibitor, FRET | – | 1 µM | – | inhibition | -3% |
| C=CC(=O)Nc1cccc(-c2cnc3[nH]cc(C(=O)NC(C)(C)C)c3n2)c1 | IRAK4 | enzyme activity, inhibitor | – | 0.1 µM | – | inhibition | -3% |
